Measured values gathered from unrelated publications.
Compare with care: the assays were run in different laboratories. “And” joins repeats or separate records; there may be more than shown. ± marks the error that the study gave.
Chain of UniProt O60674 (whole entry, looked up): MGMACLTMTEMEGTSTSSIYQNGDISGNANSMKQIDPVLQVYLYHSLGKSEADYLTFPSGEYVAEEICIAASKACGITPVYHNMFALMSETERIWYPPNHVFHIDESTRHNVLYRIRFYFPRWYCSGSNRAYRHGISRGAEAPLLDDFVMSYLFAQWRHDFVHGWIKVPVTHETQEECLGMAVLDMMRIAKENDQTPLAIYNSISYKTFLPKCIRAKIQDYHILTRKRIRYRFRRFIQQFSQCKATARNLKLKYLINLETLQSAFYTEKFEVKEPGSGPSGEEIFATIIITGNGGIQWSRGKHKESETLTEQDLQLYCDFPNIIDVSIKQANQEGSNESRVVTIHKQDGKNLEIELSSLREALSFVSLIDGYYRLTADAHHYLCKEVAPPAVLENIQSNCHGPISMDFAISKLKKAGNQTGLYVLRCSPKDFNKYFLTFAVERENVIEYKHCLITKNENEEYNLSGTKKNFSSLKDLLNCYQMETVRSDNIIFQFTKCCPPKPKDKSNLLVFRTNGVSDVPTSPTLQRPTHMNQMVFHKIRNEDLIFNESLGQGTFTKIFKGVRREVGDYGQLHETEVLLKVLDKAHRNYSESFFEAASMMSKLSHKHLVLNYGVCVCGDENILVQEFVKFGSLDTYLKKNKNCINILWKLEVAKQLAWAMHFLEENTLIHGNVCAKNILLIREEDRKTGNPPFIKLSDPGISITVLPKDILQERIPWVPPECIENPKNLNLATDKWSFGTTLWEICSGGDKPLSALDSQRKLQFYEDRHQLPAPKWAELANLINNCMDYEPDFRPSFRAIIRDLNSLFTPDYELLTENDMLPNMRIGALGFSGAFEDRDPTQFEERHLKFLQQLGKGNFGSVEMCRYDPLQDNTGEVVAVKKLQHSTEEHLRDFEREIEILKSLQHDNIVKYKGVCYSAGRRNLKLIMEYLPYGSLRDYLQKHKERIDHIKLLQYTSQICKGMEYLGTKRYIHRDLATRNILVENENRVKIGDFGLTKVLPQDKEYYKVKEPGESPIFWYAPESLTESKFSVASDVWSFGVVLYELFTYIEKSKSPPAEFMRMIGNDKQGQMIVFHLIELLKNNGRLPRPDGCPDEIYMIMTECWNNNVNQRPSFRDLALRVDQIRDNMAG
Chain of UniProt Q8NER1 (whole entry, looked up): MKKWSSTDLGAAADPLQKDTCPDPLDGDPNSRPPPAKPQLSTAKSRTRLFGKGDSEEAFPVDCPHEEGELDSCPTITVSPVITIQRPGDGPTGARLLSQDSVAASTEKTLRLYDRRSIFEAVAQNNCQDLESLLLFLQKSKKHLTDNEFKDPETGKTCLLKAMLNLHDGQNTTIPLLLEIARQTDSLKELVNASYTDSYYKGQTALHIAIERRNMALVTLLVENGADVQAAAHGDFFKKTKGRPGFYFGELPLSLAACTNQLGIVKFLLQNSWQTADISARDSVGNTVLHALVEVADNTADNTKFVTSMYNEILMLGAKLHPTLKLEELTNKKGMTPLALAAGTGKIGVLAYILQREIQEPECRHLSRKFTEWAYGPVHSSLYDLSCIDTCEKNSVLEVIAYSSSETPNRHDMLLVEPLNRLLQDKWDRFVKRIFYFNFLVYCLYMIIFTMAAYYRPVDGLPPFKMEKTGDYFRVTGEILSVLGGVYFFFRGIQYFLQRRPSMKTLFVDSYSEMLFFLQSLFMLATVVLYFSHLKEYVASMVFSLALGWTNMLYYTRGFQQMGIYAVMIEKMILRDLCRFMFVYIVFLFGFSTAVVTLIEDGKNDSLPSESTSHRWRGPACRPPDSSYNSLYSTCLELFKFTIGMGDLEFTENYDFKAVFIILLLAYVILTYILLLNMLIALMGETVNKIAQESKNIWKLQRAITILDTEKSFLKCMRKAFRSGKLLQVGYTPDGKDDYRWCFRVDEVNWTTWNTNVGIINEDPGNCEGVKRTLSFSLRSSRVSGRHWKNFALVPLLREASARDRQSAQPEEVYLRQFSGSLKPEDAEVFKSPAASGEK
Chain of UniProt P30542 (whole entry, looked up): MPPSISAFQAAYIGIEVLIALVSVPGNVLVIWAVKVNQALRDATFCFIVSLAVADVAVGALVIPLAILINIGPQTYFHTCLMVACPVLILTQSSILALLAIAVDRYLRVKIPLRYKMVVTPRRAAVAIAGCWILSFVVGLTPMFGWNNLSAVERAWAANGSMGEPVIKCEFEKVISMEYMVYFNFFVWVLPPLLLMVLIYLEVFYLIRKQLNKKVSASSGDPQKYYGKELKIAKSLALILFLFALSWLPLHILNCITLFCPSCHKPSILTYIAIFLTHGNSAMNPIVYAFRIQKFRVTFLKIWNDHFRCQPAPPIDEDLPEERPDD
Chain of UniProt P30874 (whole entry, looked up): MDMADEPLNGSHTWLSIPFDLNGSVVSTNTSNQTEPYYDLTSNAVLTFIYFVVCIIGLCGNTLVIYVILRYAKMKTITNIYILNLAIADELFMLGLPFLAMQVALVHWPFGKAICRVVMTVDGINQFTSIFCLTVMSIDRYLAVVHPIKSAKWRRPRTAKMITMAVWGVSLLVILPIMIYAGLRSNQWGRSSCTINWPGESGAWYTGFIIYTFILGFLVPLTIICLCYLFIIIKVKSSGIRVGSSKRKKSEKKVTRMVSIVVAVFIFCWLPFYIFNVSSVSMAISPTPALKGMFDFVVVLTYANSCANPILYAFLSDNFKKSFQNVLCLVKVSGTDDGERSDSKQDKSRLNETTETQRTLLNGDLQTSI
Chain of UniProt P55055 (whole entry, looked up): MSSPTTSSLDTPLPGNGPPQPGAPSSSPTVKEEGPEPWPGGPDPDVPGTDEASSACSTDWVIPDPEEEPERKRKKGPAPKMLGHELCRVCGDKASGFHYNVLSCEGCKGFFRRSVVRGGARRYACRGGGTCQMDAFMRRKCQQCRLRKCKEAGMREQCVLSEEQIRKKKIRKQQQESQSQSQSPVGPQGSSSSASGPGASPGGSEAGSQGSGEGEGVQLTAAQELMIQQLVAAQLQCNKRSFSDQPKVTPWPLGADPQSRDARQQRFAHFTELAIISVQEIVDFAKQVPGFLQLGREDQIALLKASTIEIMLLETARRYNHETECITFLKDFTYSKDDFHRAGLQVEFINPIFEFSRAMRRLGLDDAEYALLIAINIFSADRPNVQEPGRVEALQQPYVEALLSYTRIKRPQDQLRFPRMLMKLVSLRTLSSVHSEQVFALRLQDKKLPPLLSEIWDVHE
Chain of UniProt P54646 (whole entry, looked up): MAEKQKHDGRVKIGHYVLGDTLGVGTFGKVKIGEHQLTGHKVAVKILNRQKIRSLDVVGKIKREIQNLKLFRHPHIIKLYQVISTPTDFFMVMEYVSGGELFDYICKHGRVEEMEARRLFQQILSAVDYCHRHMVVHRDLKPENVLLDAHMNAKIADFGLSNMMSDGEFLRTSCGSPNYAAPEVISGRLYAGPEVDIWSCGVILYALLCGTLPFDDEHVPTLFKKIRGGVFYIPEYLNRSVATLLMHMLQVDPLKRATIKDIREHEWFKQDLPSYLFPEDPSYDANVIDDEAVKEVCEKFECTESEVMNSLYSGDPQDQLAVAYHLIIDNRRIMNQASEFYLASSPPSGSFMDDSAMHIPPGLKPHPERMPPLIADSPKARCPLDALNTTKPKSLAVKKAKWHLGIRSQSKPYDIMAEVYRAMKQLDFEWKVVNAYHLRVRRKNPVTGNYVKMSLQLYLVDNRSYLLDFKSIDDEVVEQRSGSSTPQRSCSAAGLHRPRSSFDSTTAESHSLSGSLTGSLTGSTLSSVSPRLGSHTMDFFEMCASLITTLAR
Chain of UniProt P35368 (whole entry, looked up): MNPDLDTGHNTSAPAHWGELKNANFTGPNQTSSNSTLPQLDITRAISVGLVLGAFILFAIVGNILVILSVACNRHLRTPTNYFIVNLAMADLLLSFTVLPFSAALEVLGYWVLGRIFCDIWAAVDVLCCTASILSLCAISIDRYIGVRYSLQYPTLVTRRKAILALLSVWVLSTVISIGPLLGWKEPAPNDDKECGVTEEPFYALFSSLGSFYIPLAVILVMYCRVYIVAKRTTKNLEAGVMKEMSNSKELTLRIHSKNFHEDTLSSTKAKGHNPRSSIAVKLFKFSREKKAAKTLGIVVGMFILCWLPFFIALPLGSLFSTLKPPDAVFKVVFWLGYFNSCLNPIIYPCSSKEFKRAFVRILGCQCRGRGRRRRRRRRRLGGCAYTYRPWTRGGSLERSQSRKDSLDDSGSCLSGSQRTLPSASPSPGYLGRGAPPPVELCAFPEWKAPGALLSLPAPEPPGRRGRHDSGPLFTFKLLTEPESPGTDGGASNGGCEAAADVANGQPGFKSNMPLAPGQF

| Compound | target | test | test system | conditions | inhibition |
| --- | --- | --- | --- | --- | --- |
| Cc1cnc2nc1Nc1cccc(c1)COCc1cc(ccc1OCCN1CCOCC1)N2 | Tyrosine-protein kinase JAK2 (JAK2, Homo sapiens, UniProt O60674) | inhibitor, Z'-LYTE kinase | – | 1000 nM | 98.1% and 98.3% and 96.7% |
| CCn1cc(C(=O)O)c(=O)c2c(N)c(F)c(NC3CCCCC3)cc21 | 5'-AMP-activated protein kinase catalytic subunit alpha-2, with beta2 gamma1 (PRKAA2, Homo sapiens, UniProt P54646) | kinase activity | – | 0.1 µM, with: ATP at Km | -8.3% |
| Brc1ccccc1-c1nnc(CSc2nnnn2-c2ccccc2)o1 | Alpha-1B adrenergic receptor (ADRA1B, Homo sapiens, UniProt P35368) | ligand displacement, radioligand | – | 10 µM | 19% |
| CC(=O)C12NC(C)(C)CC1(C)C(=O)C1=C2c2c(c3c4n2C(C)(C)CC2=C4C4(CC(C)(C)NC(C)(C4)C2=O)CC3(C)C)C(=O)C(C)(C)N1 (single isomer, unassigned; (+)) | Transient receptor potential cation channel subfamily V member 1 (TRPV1, Homo sapiens, UniProt Q8NER1) | ion current, inhibitor, patch clamp | HEK-293T | 50 µM | 9.26% |
| O=C1c2sc(-c3ccc(N4CCC(CO)CC4)nc3F)nc2CCN1c1cccnc1 | Adenosine receptor A1 (ADORA1, Homo sapiens, UniProt P30542) | ligand displacement, radioligand | – | 1 µM | -10% |
| Cc1ccc(N(O)/N=N/c2ccc(S(=O)(=O)Nc3nccs3)cc2)cc1 | α-glucosidase, rat intestine | enzyme activity | – | 60 µg/mL, with: 4-nitrophenyl α-D-glucopyranoside | 12.5 ± 0.01% |
| O=C1c2sc(-c3ccc(N4CCC(F)C4)nc3F)nc2CCN1c1cccnc1 (centres unmarked) | Oxysterols receptor LXR-beta (NR1H2, Homo sapiens, UniProt P55055) | ligand displacement, radioligand | – | 1 µM | 1% |
| C[Si](C)(C)C[C@@H](CN)CC(=O)O | Somatostatin receptor type 2 (SSTR2, Homo sapiens, UniProt P30874) | ligand displacement, radioligand | – | 75 µM | 7% |
